Measured values pooled from the literature.
Protocols differ between the studies behind these lines. pIC50: −log10 of the molar value.
Cell line: NCI-H522

Structure (SMILES)	assay	setting	scale	endpoint	result
O=C(Nc1nnc2c1c(-c1ccc(Cl)cc1)nc1sc(=Cc3ccco3)c(=O)n12)c1ccccc1 (mixture of isomers)	SRB	10 µM, NCI60 single-dose screen	relative to: untreated	cell growth	13.2%
Cc1ccc(C(=O)/C=C/c2ccccc2)s1	cell growth or viability, SRB	10 µM		inhibition	6.5%
CNS(=O)(=O)Nc1nccc(Cc2c(C)c3ccc(Oc4ncccc4F)cc3oc2=O)c1F	cell viability	7 days		pIC50	< 6.00
CCCCCCCCCCCCCCCCCCOc1ccccc1CCOP(=O)([O-])OCC[N+](C)(C)C	cell growth or viability, SRB	10 µM		inhibition	42.5%
C1=[N+]2CCCC[N+]3=Cc4ccc5[n]4[Au-]23[n]2c1ccc2-c1nc2ccccc2nc1-5.F[P-](F)(F)(F)(F)F	NCI60 five-dose screen			TGI	6.53 -log M
CCCC(CCC)C(=O)OCc1cn(-c2cc3ccccc3oc2=O)nn1	NCI60 single-dose screen	10 µM		growth percentage	91.2%
CN(C)CCN1CCN(c2ccc3nc(-c4ccc5nc(-c6ccc(C(F)(F)F)cc6)[nH]c5c4)[nH]c3c2)CC1	SRB	10 µM, 48 h		growth percent	42.1%
Cc1ccc([N+](=O)[O-])cc1S(=O)(=O)N(C)/N=C/c1cnc2ccc(Br)cn12	cell growth or viability			pIC50	< 5.00
CC(C)c1ccc(N(C)c2ccc3c(c2)OCC[C@H]3CNc2cnccc2C(=O)O)cc1	cell growth or viability, ATP luminescence	7 days		pIC50	7.76

A few entries again:
Structure (SMILES)	assay	setting	scale	endpoint	result
C1=[N+]2CCCC[N+]3=Cc4ccc5[n]4[Au-]23[n]2c1ccc2-c1nc2ccccc2nc1-5.F[P-](F)(F)(F)(F)F	NCI60 five-dose screen			TGI	6.53 -log M
